Results collected from several papers.
A part holds a random share of what one study measured. Substitutions count along the parent as printed.

Block 1 — method: RNA Bind-n-Seq; form: RNA; sample: in vitro; concentration: 365 nM; reference: no-protein control; reading: higher = stronger binding
Target: RNA binding protein fox-1 homolog 2, RRM domain, GST-SBP tag (RBFOX2, Homo sapiens, UniProt O43251-10, residues 100-194)
Notes: natural RNA segment, single round, ends assumed
Construct (chain): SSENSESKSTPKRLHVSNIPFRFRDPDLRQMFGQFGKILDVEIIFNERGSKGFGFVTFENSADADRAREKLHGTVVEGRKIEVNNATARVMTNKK
| Strand | RBNS enrichment (R) |
| --- | --- |
| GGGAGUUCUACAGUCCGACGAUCGCCAUUAUUUUGACGCCUUUUUGUUUUCUUUUUGAAAAACAAAAUAUUAUUCCCCUGCUUCAUGGCUGAAAUAAAAGGUGAUGGUAACUGGGGGCACCCCCUCUCCCUGGUGGAAUUCUCGGGUGCCAA | 0.483 |
| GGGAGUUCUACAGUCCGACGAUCUUUGGAAAUUUACAUCAUCCUCAAGUAAAAUAAAUAUCAGUUAAAUAUUGGAAGCUGUGUGUAAGAUUGAUUCAGCAUUCCAUGCACUUGCUUUAAAAUUUAGUCCUGUGUGGAAUUCUCGGGUGCCAA | 0.453 |
| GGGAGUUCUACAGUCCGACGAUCUCUGUUUUUUCCCAGUAGUACAAGGCCAGUGUCCUGAGCAAUGGGACCAGUUCUCCACCUGCUCUGACUGCUCAGGAGGCCUGGGUUCCCAUCUACCCUGUCACACUUCAUGGAAUUCUCGGGUGCCAA | 0.337 |
| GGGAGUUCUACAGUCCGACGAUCGUAGUUUGCAGUCUGAGAUAUGGGAGAGCUUUUAGGCUACACAGCAACCCAAGGGACCUCUCACCUUUUGCUGAGCUUCAAUCAGGAAGCUAUUUGCCUGGCUCCAGCAGUGGAAUUCUCGGGUGCCAA | 0.39 |
| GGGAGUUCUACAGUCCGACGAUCCAUCUCAUUCAAACCCCACCCUAGUUUCCCUGAAGGAACAUUCCUUAGUCUCAAGGGCUAGCAUCCCUGAGGAGCCAGGCCGGGCCGAAUCCCCUCCCUGUCAAAGCUGUUGGAAUUCUCGGGUGCCAA | 0.5 |
| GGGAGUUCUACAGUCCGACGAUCCAAUGUGCAUUUUUUGGAGGUCAUUCAAAUUUUCCCUCUUCUGUGAUUGCUGUAGUUUCUUUCAUAGAAAGUAGCUGAUCUGAUGUAAUCUUUUACCUUUUAAACAACCAUGGAAUUCUCGGGUGCCAA | 1.53 |
| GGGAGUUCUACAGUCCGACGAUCGCACAAUCAGUGUGAAUAAAUUCACUUCAGAAUCUCAAGUCAAGGCCAGGCACGGCGGCUCACGCCUGUAAUCCCAGCACUUUGGGAGGCCGAGACAGGCGGAUCACCUGUGGAAUUCUCGGGUGCCAA | 0.332 |
| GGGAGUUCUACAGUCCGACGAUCACCAGGCCUUCCCUCUAGGGCUUCUGGCUACUUGCUGCAGUUCUUUGUCAGCGAGGCUCCCUGCCACCUAUACUACCAGGUGCUUUGUAGCAGAGAGAGCCCAUCUGCAGUGGAAUUCUCGGGUGCCAA | 0.372 |
| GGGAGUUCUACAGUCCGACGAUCGCUGGGGCCAUGCCGAGUCGCGGCCCUGCUCAGCCGGAAGAGGCUCCCGGACCUGGAUGUACAGGGCAGUCUCUCUUCCCGGGGCUAUGGCUGGGCCUGUCCUGCCGUCAUGGAAUUCUCGGGUGCCAA | 0.554 |
| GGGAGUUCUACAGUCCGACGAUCGUAAGUAUCCACGACUCCAACCAGUAUUAUAGACCUUGGGGAUGUUUCAGAAUGUGGAAGUUACUAGGCCUGUCAAGCCAUCACUUCACCCCAAGAUCUCCAGUUUUAGAUGGAAUUCUCGGGUGCCAA | 0.373 |
| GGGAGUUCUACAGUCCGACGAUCGCUGUCCUGUGUCGCCAGGUCGAAGAUCACAGUGAGGUAGAGGCCCUGCCCCAUCCCCAGGGCCGCCAGGCUUGCUCCGUUUGCUUUGAGUUUUUAGACCCCAGAGGGAGUGGAAUUCUCGGGUGCCAA | 0.534 |
| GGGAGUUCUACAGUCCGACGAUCUAUCCAUUAACUUUCAUGGCUGACUUCUGUCUAGGCAUCAUAGUUUGCUUCAGAAUAGAUCUUUAUCAUCAUGUCUGCCUUUCCAUACUAUUGUAUUUAUUUUAGAAACUUGGAAUUCUCGGGUGCCAA | 0.31 |

Block 2 — method: RNA Bind-n-Seq; form: RNA; sample: in vitro; concentration: 1 µM; notes: whole 134-nt RNA, ends assumed; with: 150 mM KCl; reference: input library; reading: higher = stronger binding
Target: Ras GTPase-activating protein-binding protein 1, RRM domain (G3BP1, Homo sapiens, UniProt Q13283)
Sequence of UniProt Q13283 (whole entry, looked up): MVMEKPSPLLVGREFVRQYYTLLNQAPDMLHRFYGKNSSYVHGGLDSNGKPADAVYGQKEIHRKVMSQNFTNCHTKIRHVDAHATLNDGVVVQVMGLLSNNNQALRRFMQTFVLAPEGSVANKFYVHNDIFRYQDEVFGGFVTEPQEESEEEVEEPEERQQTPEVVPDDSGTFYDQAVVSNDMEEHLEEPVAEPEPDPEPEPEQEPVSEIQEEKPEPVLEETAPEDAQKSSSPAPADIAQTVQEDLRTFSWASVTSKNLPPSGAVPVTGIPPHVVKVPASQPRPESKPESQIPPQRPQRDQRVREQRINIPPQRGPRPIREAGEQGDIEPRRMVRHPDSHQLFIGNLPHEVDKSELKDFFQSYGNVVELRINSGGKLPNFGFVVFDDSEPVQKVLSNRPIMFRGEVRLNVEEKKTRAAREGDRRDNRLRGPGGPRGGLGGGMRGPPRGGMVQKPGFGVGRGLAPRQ
| Strand | log2 enrichment |
| --- | --- |
| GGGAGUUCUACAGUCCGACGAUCUGGACGAUGAAGAGGAAACAAUUGAAGAGGAGGAAGCAAAUGAAGGCGUUGUGGACCACCAAACAGAACUUUCUAAUUUAGCCAAGGAAGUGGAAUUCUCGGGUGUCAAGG | -0.0753 |
| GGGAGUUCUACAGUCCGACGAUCCCUCAAGUCCUGUGCUACACAUCGUAUGUACCGAAUCGGGCGGGGCGGGCGGAAAGUAUUAUGUUACGCCGUUCGGAUCUGCACUUCCAGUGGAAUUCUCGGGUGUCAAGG | 0.0677 |
| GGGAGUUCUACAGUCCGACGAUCCACAGACAACACGCACCCACACAGACACAGAGGGAAGGGGAUGGGAUGGGGACAGGGUGCACAGCAGGGCGGGGUAGGACCCCAGCCCCUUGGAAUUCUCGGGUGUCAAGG | -0.0248 |
| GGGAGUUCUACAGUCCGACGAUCUCUCCCCAGGAGCACAGAAAAUGGUUCUGCCCCCUCCACAGCUCCCACAGACCAGAGCCGGCCACCGUUGGAGGUGAGUCGCCCGCCCCUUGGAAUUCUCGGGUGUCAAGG | -0.359 |
| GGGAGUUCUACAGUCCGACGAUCUAACUUUAGAGGAGGAUCUGAUGGAUAUGGCAGUGGACGUGGAUUUGGGGAUGGCUAUACUGGGUAUGGAGGAGGACCUGGAGGUGGCAAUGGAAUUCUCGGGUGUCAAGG | -0.384 |
| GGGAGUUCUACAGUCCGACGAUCUGGCCCUGGUGGCAUGCGGGGAGGAAGAGGUGGCCUCAUGGAUGGUGGUGGUCCCGGUGGAAUGUUCAGAGGUGGCCGUGGUGGAGACAGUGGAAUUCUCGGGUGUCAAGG | 1.12 |
| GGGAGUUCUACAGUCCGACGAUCCCUCAAGUCCUGUGCUACACAUCGUAUGUACCGAAUCGGCGGGGCGGGGCGGGAAAGUAUUAUGUUACGCCGUUCGGAUCUGCACUUCCAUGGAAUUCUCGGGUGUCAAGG | 0.0428 |
| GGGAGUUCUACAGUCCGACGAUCACCAUGCAGGUGGGCAUCUUUGGGAAGUGGGGCAAGGGGGGGAUAGGGAGAAAGGUAACACUUUGGGAACAGGUGGUCCCAGGUCGUUUCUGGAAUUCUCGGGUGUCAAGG | -0.342 |
| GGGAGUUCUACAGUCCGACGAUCAAGUCCUGUGCUACACAUCGUAUGUACCGAAUCGGGAAAAAGGGAAAGGGUUUGGGAAAGUAUUAUGUUACGCCGUUCGGAUCUGCACUUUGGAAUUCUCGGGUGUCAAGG | 0.534 |
| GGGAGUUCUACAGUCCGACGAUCACCAUGCAGGUGGGCAUCUUUGGGAAGUGGGGCAAUGGGGGGAUAGGGAGGGGGGUAACACUUUGGGAACAGGUGGUCCCAGGUCGUUUCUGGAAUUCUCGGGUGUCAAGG | -0.404 |
| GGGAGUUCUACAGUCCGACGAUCAAGUCCUGUGCUACACAUCGUAUGUACCGAAUCGGGAAAAGGGAAAAGGGGAAAAGGAAAGUAUUAUGUUACGCCGUUCGGAUCUGCACUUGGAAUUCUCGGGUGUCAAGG | -0.232 |

Block 3 — target: CCNE2, cyclin fold, Cln2 fusion (human); method: yeast growth competition, sequencing; sample: yeast; notes: strong parent motif; reference: not given; reading: higher = stronger binding
Parent: DOT1L docking peptide (human); SEAKRRIVFTITT; partner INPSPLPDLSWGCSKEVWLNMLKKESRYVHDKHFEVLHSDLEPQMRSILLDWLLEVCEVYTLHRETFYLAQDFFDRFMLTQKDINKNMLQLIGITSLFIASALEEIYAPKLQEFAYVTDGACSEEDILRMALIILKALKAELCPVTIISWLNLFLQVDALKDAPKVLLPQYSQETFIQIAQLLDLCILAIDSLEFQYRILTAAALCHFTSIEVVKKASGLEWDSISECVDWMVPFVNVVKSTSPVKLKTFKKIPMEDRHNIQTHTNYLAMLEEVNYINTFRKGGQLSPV
| Change | normalised enrichment score |
| --- | --- |
| SEAKRRIVATITT [F9A] | 0.712 |
| SEAARRIVFTITT [K4A] | 0.702 |
| SEAKRAIVFTITT [R6A] | 0.162 |
| SEAKRRIVFTATT [I11A] | 1.37 |
| SAAKRRIVFTITT [E2A] | 1.52 |
| AEAKRRIVFTITT [S1A] | 0.903 |

Single results of other studies
| Molecule | target | assay | test system | conditions | scale | measurement | result |
| --- | --- | --- | --- | --- | --- | --- | --- |
| PhoQ, residues 284 288 289 292 302 303 NLMGRA | PhoP, residues 12 14 15 18 19 GQALL (Escherichia coli, UniProt P23836) | Sort-seq, refers to: YFP reporter | E. coli | PhoQ-PhoP variant library, with: 10 µM Mg2+ | reference: high Mg2+ state, higher = stronger signaling | fold induction | 23.6 |

A few entries again (block 1):
| Strand | RBNS enrichment (R) |
| --- | --- |
| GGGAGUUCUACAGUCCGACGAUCGUAAGUAUCCACGACUCCAACCAGUAUUAUAGACCUUGGGGAUGUUUCAGAAUGUGGAAGUUACUAGGCCUGUCAAGCCAUCACUUCACCCCAAGAUCUCCAGUUUUAGAUGGAAUUCUCGGGUGCCAA | 0.373 |
| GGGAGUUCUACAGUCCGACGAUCGUAGUUUGCAGUCUGAGAUAUGGGAGAGCUUUUAGGCUACACAGCAACCCAAGGGACCUCUCACCUUUUGCUGAGCUUCAAUCAGGAAGCUAUUUGCCUGGCUCCAGCAGUGGAAUUCUCGGGUGCCAA | 0.39 |
| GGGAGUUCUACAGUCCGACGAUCUUUGGAAAUUUACAUCAUCCUCAAGUAAAAUAAAUAUCAGUUAAAUAUUGGAAGCUGUGUGUAAGAUUGAUUCAGCAUUCCAUGCACUUGCUUUAAAAUUUAGUCCUGUGUGGAAUUCUCGGGUGCCAA | 0.453 |
